Results of several laboratories.
Protocols differ between the studies behind these lines. ± marks the error that the study gave. Converted amounts (≈) assume the structure as drawn.

With `CN1CCC[C@]1(C)/C=C/S(=O)(=O)NC(=O)Nc1c2c(cc3c1CCC3)CCC2` the AUC(0-t) was 341 µg·h/mL (human, plasma; oral, 400 mg, single dose, healthy volunteers).
`Cc1ccc(OCC(=O)N(Cc2cccs2)c2ccn[nH]2)cc1`: “relative peak area” 3.15% (LC-MS extracted ion chromatogram; human liver microsomes; 10 µM, 60 min; baseline: parent at time 0 min).
`C[C@H]1Nc2nc(=O)c3[nH]ccc3n2Cc2ccc(Cl)cc21` gave an exposure ratio of at least 33 (Sprague-Dawley rat, both sexes, plasma; oral, 125 mg/kg/day; baseline: rat over human clinical doses).
For `CC/C=C\C/C=C\C/C=C\C/C=C\C/C=C\CCCCOC(CC)C(=O)O` (stereo not shown), the tissue concentration was 77.7 µg equivalents/g tissue (radioactivity, 14C-labelled; Wistar rat, male, liver; oral, 100 mg/kg, 1 h).
For `CC(C)=CCC[C@](C)(O)[C@H]1CC[C@]2(C)[C@@H]1[C@H](O)C[C@@H]1[C@@]3(C)CC[C@H](O)C(C)(C)[C@@H]3CC[C@]12C`, the solubility was 5370 ± 887 µg/mL (≈ 11.7 mM) (Tween 20; 72 h, 25 °C).
`CC(C)(O)c1ncc([S@](N)(=O)=NC(=O)Nc2c3c(cc4c2CCC4)CCC3)s1` has a Cmax of 4670 ng/mL (human, plasma; oral, 100 mg, single dose, fasted, healthy volunteers).
`CN1C(=O)[C@@H](Cc2ccc(O)c(I)c2)NC(=O)CNC(=O)[C@H](Cc2ccc3ccccc3c2)NC(=O)[C@H](CCCNC(=N)N)NC(=O)[C@H]1CCCNC(=O)c1ccc(CNC(=O)CN2CCN(CC(=O)O)CCN(CC(=O)O)CCN(CC(=O)O)CC2)cc1` [lutetium-177 labelled] has a tissue uptake of 0.56 ± 0.08 %ID/g (measured: 177Lu radioactivity; female CB-17 SCID mice, Daudi xenograft, adrenals; intravenous, 0.16 nmol per mouse, 48 h).
The excitation maximum of `NCCC(=O)N1Cc2ccccc2-c2c(nnn2-c2nc3c(N)ncnc3n2C2OC(CO)C(O)C2O)-c2ccccc21` (mixture of isomers) is reported as 293 nm (methanol).
For `C[C@H]1C[C@@H](Oc2cccc(F)n2)CCN1Cc1cnc(N[11C](C)=O)s1`, the unchanged parent was about 50% (rhesus monkey, plasma; dose not given, 90 min, baseline, end of scan).
For `CC(C)[C@H](NC(=O)[C@@H]1CCCN1C(=O)[C@H](CCCNC(=N)N)NC(=O)[C@H](CS)NC(=O)[C@H](Cc1c[nH]c2ccccc12)NC(=O)[C@H](CCCNC(=N)N)NC(=O)[C@@H](Cc1ccccc1)NC(=O)[C@H](Cc1c[nH]cn1)NC(=O)[C@H](CCC(=O)O)NC(=O)[C@H](CS)NC(=O)[C@H](CS)NC(=O)CNC(=O)[C@@H]1CC(=O)N[C@@H](CCCNC(=N)N)C(=O)NCC(=O)N[C@@H](CC(=O)O)C(=O)N[C@H](Cc2ccc(O)cc2)C(=O)N1)C(N)=O` [technetium-99m labelled], the tumour-to-tissue ratio was 5.84 (C57 mice B16/F1 melanoma female; iv, 2 h, together with: NDP-MSH blockade; baseline: tumour over blood).
`CC(C)C[C@H](NC(=O)[C@H](CCCCN)NC(=O)CNC(=O)[C@H](CC(C)C)NC(=O)[C@@H](NC(=O)[C@@H]1CSSC[C@H](N)C(=O)N[C@@H](CO)C(=O)N[C@@H](CC(N)=O)C(=O)N[C@@H](CC(C)C)C(=O)N[C@@H](CO)C(=O)N[C@@H]([C@@H](C)O)C(=O)N1)C(C)C)C(=O)N[C@@H](CO)C(=O)N[C@@H](CCC(N)=O)C(=O)N[C@@H](CCC(=O)O)C(=O)N[C@@H](CC(C)C)C(=O)N[C@@H](Cc1c[nH]cn1)C(=O)N[C@@H](CCCCN)C(=O)N[C@@H](CC(C)C)C(=O)N[C@@H](CCC(N)=O)C(=O)N[C@H](C(=O)N[C@@H](Cc1ccc(O)cc1)C(=O)N1CCC[C@H]1C(=O)N[C@@H](CCCNC(=N)N)C(=O)N[C@H](C(=O)N[C@@H](CC(N)=O)C(=O)N[C@H](C(=O)NCC(=O)N[C@@H](CO)C(=O)NCC(=O)N[C@H](C(=O)N1CCC[C@H]1C(N)=O)[C@@H](C)O)[C@@H](C)O)[C@@H](C)O)[C@@H](C)O` gave an AUC of 0.00648 ± 0.00218 µg·h/mL (ELISA; hairless male Sprague-Dawley rat, serum; intravenous, 3 µg).
For `CC(C)c1cnc(-c2cc(Cl)ccc2F)cc1Nc1ccncc1C(=O)NC(CO)CO`, “patients with treatment-related adverse event” read 2.4% (monotherapy, measured: myalgia; human patients; oral, dose not given, grade 2, phase I A).
`Cn1c(=O)oc2ccc(-c3ccc(CC(C#N)NC(=O)C4CNCCCO4)c(F)c3)cc21` (stereo not shown) — result for “subjects with TEAE”: 0% (measured: glucose urine present; human; 15 mg single dose, fasted).
`CC(C)[C@H](NC(=O)CNC(=O)[C@H](CCC(N)=O)NC(=O)[C@H](C)N)C(=O)O` has a Cmax of 27 ng/mL (male human, plasma; intravenous, 1 mg/kg, single dose).
`COC(=O)c1ccc(-c2cn(Cc3cc(Cl)ccc3O[11CH3])nn2)cc1` — result for “maximum brain uptake”: 2.7 %ID/cc (PET/CT; C57BL/6 mouse, brain).
`O=C(CCc1ccc(CNC(C(=O)OC2CCCC2)C2CCCCC2)cn1)NO` (stereo not shown) gave a CL/F of 243 L/h (human; 60 mg, single dose, geometric mean).
`CCCC[C@@H]1NC(=O)[C@@H](NC(=O)[C@H](CCC(=O)O)NC(=O)CNC(=O)CN2CCN(CC(=O)O)CCN(CC(=O)O)CCN(CC(=O)O)CC2)CCCCNC(=O)C[C@@H](C(N)=O)NC(=O)[C@H](C(C)C)NC(=O)[C@@H]2CCCN2C(=O)[C@H](CCCNC(=N)N)NC(=O)CNC(=O)[C@H](Cc2c[nH]c3ccccc23)NC(=O)[C@H](CCCNC(=N)N)NC(=O)[C@@H](Cc2ccccc2)NC(=O)[C@H](Cc2c[nH]cn2)NC(=O)[C@H](CCC(=O)O)NC1=O` [gallium-67 labelled] gave a tissue ratio of 5.3 (C57 mice, B16/F1 flank melanoma; intravenous, 0.5 h; baseline: tumour over skin).
The Tm increase of `CC[C@H](C)[C@@H]1NC(=O)[C@H](Cc2ccccc2)NC(=O)[C@@H](NC(=O)[C@H](CCCNC(=N)N)NC(=O)[C@H](Cc2ccccc2)NC(=O)[C@H](Cc2ccccc2)NC(=O)[C@H](CCCCN)NC(=O)[C@H](CO)NC(=O)[C@H](CC(C)C)NC(=O)[C@H](CCCNC(=N)N)NC(=O)[C@H](CCSC)NC(=O)[C@H](C)N)CCNC(=O)NCCC[C@@H](C(=O)N[C@@H](CCCNC(=N)N)C(=O)N[C@@H](CCCCN)C(=O)N[C@@H](CCCCN)C(=O)O)NC(=O)[C@H](CC(C)C)NC1=O` is reported as about 36 °C (circular dichroism; 2.5 mM DPC; baseline: CSP1-E1A).
With `COc1cc2c(cc1OC)CN(CCCCn1ccc3cc(OCC[18F])ccc31)C2` the tracer uptake was 4.4 %ID/g (male CD-1 mouse, bone; intravenous, 280 kBq, 15 min).
The relative error of `COc1ccc([C@@H]2CC(=O)c3c(O)cc(O[C@@H]4O[C@H](CO[C@@H]5O[C@@H](C)[C@H](O)[C@@H](O)[C@H]5O)[C@@H](O)[C@H](O)[C@H]4O)cc3O2)cc1O` is reported as -3.14% (rat plasma; 0.48 ng/mL, 12 h, room temperature, autosampler stability; baseline: nominal concentration).
For `Cc1cc2c(cc1C1(c3ncc(C(=O)O)cn3)CC1)C(C)(C)CCC2(C)C`, the blood triglycerides was 177 ± 121 mg/dL (Sprague-Dawley rat, male; oral, 100 mg/kg, 9 h, sesame oil vehicle).
For `COc1ccc(/C=C/c2ccc(-c3ccc(C)cn3)nc2)cc1`, “fluorescence quantum yield” read 0.28 (acetonitrile; zinc-free ligand, together with: quinine bisulfate reference).
The uptake ratio of `CCCC[C@H](NC(=O)CNC(=O)CNC(=O)CN1CCN(CC(=O)O)CCN(CC(=O)O)CC1)C(=O)N[C@H]1CC(=O)NCCCC[C@@H](C(N)=O)NC(=O)[C@H](Cc2c[nH]c3ccccc23)NC(=O)[C@H](CCCNC(=N)N)NC(=O)[C@@H](Cc2ccccc2)NC(=O)[C@H](Cc2c[nH]cn2)NC1=O` [copper-64 labelled] is reported as 42.5 (female C57 mouse, B16/F1 melanoma; intravenous, 0.037 MBq, 24 h; baseline: tumour over blood).
`CC[C@H](C)[C@H](NC(=O)[C@@H]1CCCN1C(=O)CNC(=O)[C@H](Cc1ccccc1)NC(=O)[C@H](CC(N)=O)NC(=O)[C@H](CC(N)=O)NC(=O)[C@H](CO)NC(=O)[C@H](CO)NC(=O)[C@H](Cc1c[nH]cn1)NC(=O)[C@@H](NC(=O)[C@H](CC(C)C)NC(=O)[C@H](Cc1ccccc1)NC(=O)[C@H](CC(N)=O)NC(=O)[C@H](C)NC(=O)[C@H](CC(C)C)NC(=O)[C@H](CCCNC(=N)N)NC(=O)[C@H](CCC(N)=O)NC(=O)[C@@H](NC(=O)[C@H](C)NC(=O)[C@@H]1CSSC[C@H](NC(=O)[C@@H](N)CCCCN)C(=O)N[C@@H](CC(N)=O)C(=O)N[C@@H]([C@@H](C)O)C(=O)N[C@@H](C)C(=O)N[C@@H]([C@@H](C)O)C(=O)N1)[C@@H](C)O)C(C)C)C(=O)N[C@@H](CC(C)C)C(=O)N[C@@H](CO)C(=O)N1CCC[C@H]1C(=O)N[C@H](C(=O)N[C@@H](CC(N)=O)C(=O)N[C@H](C(=O)NCC(=O)N[C@@H](CO)C(=O)N[C@@H](CC(N)=O)C(=O)N[C@H](C(=O)N[C@@H](Cc1ccc(O)cc1)C(N)=O)[C@@H](C)O)C(C)C)[C@@H](C)O` — result for “collision cross section”: 891 ± 10.1 Å² (ion mobility mass spectrometry; nitrogen drift gas; dimer charge +5, second conformer).
For `CCCCC/C=C/C=C/C(=O)NCC(C)C`, the relative error was -0.67% (processed rat plasma; 15 ng/mL, 4 h, 20 °C, autosampler stability low QC; baseline: nominal concentration).
Under “maximal oral bioavailability”, `CN(C)Cc1ccc([C@H]2C[C@@]3(C)[C@@H](CC[C@@]3(O)C(F)(F)C(F)(F)F)[C@@H]3CCC4=CC(=O)CCC4=C32)cc1` is recorded as 100% (rat liver microsomes; 100 % absorption assumed).
For `C#CCNC(=O)C(CC(C)(C)F)NC(c1ccc(-c2ccc(S(C)(=O)=O)cc2)cc1)C(F)(F)F` (stereo not shown), “cysteine adduct formation” read under 1% (LC-MS UV trace; aqueous buffer; concentration not given, 23 h, pH 5.5, 37 °C, together with: cysteine 10 mM).
For `CNC(=O)N[C@]1(C)CCC[C@@]2(C)C3CC[C@@]4(C)C[C@]3(CCC21)CC4=O` (single isomer, unassigned), the relative error was 11.1% (processed rat plasma; 400 ng/mL, 24 h, 4 °C, autosampler stability; baseline: nominal concentration).

Repeated from above:
`CC[C@H](C)[C@H](NC(=O)[C@@H]1CCCN1C(=O)CNC(=O)[C@H](Cc1ccccc1)NC(=O)[C@H](CC(N)=O)NC(=O)[C@H](CC(N)=O)NC(=O)[C@H](CO)NC(=O)[C@H](CO)NC(=O)[C@H](Cc1c[nH]cn1)NC(=O)[C@@H](NC(=O)[C@H](CC(C)C)NC(=O)[C@H](Cc1ccccc1)NC(=O)[C@H](CC(N)=O)NC(=O)[C@H](C)NC(=O)[C@H](CC(C)C)NC(=O)[C@H](CCCNC(=N)N)NC(=O)[C@H](CCC(N)=O)NC(=O)[C@@H](NC(=O)[C@H](C)NC(=O)[C@@H]1CSSC[C@H](NC(=O)[C@@H](N)CCCCN)C(=O)N[C@@H](CC(N)=O)C(=O)N[C@@H]([C@@H](C)O)C(=O)N[C@@H](C)C(=O)N[C@@H]([C@@H](C)O)C(=O)N1)[C@@H](C)O)C(C)C)C(=O)N[C@@H](CC(C)C)C(=O)N[C@@H](CO)C(=O)N1CCC[C@H]1C(=O)N[C@H](C(=O)N[C@@H](CC(N)=O)C(=O)N[C@H](C(=O)NCC(=O)N[C@@H](CO)C(=O)N[C@@H](CC(N)=O)C(=O)N[C@H](C(=O)N[C@@H](Cc1ccc(O)cc1)C(N)=O)[C@@H](C)O)C(C)C)[C@@H](C)O` — result for “collision cross section”: 891 ± 10.1 Å² (ion mobility mass spectrometry; nitrogen drift gas; dimer charge +5, second conformer).
For `CCCCC/C=C/C=C/C(=O)NCC(C)C`, the relative error was -0.67% (processed rat plasma; 15 ng/mL, 4 h, 20 °C, autosampler stability low QC; baseline: nominal concentration).
